Results from different studies.
Numbered parts are unrelated; each lists some results of a single study. Values joined by “and” are separate records of one study, mostly repeats; a detail may differ.
Chain of UniProt Q6XUX3 (whole entry, looked up): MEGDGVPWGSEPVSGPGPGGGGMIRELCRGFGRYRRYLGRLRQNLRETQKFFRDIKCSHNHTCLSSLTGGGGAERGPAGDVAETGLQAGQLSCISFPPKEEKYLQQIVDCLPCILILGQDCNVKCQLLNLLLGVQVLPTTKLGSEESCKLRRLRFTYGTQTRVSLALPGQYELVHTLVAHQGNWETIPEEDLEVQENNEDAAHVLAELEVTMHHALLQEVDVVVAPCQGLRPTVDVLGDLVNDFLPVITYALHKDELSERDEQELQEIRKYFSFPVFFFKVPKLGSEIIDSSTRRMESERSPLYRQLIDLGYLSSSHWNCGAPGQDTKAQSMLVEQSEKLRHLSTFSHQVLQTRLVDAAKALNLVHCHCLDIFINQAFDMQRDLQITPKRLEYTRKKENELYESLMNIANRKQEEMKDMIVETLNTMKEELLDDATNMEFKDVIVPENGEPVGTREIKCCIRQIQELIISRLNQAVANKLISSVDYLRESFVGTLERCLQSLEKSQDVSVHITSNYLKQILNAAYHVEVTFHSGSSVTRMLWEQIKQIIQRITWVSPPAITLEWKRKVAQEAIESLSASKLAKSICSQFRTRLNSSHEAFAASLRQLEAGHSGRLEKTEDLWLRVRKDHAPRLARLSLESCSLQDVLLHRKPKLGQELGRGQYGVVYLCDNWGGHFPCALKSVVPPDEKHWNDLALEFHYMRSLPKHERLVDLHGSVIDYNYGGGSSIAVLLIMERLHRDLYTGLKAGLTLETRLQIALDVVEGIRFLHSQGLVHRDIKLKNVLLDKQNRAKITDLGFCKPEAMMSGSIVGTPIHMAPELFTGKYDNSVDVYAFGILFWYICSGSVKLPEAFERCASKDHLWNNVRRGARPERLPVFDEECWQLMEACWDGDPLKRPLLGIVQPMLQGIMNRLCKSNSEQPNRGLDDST
Chain of UniProt Q13555 (whole entry, looked up): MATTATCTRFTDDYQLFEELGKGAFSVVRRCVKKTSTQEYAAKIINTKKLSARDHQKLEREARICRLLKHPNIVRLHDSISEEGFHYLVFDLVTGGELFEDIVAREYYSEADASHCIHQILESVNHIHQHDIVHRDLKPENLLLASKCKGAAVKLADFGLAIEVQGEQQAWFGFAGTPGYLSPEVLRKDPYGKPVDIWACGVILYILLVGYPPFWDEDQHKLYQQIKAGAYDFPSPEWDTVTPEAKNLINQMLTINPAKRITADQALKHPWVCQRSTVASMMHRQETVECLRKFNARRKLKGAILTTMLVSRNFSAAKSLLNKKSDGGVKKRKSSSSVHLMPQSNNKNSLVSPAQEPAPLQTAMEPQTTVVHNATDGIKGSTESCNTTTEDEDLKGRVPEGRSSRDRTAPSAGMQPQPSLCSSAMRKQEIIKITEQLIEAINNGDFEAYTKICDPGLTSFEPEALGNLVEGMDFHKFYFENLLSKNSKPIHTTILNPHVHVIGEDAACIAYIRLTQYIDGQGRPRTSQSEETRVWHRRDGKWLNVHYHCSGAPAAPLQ
Chain of UniProt P05771 (whole entry, looked up): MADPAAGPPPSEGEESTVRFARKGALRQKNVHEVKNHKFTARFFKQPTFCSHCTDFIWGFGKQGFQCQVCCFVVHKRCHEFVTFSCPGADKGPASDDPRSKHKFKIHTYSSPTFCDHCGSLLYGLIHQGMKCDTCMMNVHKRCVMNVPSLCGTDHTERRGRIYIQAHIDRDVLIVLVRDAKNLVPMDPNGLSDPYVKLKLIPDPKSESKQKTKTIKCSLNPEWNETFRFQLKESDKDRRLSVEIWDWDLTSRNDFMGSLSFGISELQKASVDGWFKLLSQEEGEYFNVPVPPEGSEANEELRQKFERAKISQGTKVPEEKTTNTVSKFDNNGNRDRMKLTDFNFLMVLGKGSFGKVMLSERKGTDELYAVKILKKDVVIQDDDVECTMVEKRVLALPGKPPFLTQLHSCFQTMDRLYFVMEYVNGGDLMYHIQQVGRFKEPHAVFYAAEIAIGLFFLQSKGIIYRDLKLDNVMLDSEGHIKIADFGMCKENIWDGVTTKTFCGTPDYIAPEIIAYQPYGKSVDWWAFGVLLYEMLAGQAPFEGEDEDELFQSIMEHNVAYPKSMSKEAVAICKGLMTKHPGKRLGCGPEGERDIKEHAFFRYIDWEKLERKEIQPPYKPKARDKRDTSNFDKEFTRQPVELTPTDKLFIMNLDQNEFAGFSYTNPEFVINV
Chain of UniProt Q9Y4K4 (whole entry, looked up): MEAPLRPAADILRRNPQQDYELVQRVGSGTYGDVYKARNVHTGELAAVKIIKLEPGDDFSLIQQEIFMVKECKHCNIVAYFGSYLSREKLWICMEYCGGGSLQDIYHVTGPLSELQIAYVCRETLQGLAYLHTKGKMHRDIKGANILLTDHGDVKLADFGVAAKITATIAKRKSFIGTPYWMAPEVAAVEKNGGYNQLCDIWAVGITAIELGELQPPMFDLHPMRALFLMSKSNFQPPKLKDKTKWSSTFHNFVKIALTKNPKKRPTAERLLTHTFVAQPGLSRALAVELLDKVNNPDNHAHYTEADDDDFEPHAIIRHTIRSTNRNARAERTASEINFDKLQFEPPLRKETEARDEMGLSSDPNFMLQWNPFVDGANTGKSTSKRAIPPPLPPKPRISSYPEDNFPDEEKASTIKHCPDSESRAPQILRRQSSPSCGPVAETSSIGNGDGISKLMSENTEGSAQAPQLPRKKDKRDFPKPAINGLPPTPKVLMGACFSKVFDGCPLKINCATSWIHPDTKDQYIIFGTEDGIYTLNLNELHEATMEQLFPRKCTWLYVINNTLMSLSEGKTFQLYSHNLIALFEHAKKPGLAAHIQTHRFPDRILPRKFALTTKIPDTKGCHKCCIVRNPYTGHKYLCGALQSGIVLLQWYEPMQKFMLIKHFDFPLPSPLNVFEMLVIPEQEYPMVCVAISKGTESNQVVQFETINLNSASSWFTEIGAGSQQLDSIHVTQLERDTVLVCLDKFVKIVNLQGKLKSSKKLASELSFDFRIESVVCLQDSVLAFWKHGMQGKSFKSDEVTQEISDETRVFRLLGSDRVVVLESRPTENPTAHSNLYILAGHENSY
Chain of UniProt Q9NR20 (whole entry, looked up): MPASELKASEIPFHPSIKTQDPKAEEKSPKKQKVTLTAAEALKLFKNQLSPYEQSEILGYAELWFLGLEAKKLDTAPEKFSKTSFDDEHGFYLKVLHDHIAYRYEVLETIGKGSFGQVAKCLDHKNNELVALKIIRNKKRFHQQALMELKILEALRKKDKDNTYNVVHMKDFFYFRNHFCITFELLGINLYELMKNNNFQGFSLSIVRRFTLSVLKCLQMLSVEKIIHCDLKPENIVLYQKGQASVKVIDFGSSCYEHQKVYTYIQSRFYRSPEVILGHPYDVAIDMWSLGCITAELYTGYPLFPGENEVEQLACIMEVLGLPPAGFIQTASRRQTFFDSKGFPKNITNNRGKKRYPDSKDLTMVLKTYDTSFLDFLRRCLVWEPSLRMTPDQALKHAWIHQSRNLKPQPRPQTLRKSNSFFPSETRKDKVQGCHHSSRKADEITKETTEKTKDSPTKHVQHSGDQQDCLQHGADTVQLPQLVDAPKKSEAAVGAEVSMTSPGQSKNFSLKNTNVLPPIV

Study 1 — SMILES: CC(C)(C)c1cc(C=C(C#N)C#N)cc(Br)c1O; observed: enzyme activity; action: inhibitor; tested at: 0.5 µM
It gave 81.4% for remaining activity (PRKCA (Homo sapiens, UniProt P17252)).
The remaining activity was 129% (Protein kinase C beta type, isoform beta-II (PRKCB, Homo sapiens, UniProt P05771); reference: control).
The remaining activity was 98.2% (DYRK4 (Homo sapiens, UniProt Q9NR20)).
It gave 104% for remaining activity (CAMK2G (Homo sapiens, UniProt Q13555); reference: control).
For MAP4K5 (Homo sapiens, UniProt Q9Y4K4): remaining activity read 95.8%.
For DSTYK (Homo sapiens, UniProt Q6XUX3): remaining activity read 105%.

Study 2 — method: CCK-8
SMILES: CC(C)S(=O)(=O)c1cc2c(Nc3ccc4sc(C5CCCC5)nc4c3)ccnc2cc1OCCO
The survival was 80.9% and 86.8% and 79.8% and 81% (L929 RIPK3-/- reexpressing RIPK3 K51A; 6.25 µM, added: zVAD).
For L929 RIPK3-/- reexpressing RIPK3 K51A/R69H; 6.25 µM, added: zVAD: survival read 81.4% and 95.7% and 89.4% and 96.5%.
The survival was 64.3% and 65.3% and 66.6% and 55% (L929 RIPK3-/- reexpressing RIPK3 K51A/R69H; 25 µM, added: zVAD).
The survival was 50.2% and 46.3% and 48.9% and 37.9% (L929 RIPK3-/- reexpressing RIPK3 K51A; 25 µM).
For L929 RIPK3-/- reexpressing RIPK3 K51A; 12.5 µM: survival read 60.3% and 73.1% and 63.4% and 70.1% and 69.6%.
L929 RIPK3-/- reexpressing RIPK3 K51A; 50 µM — survival: 13.2% and 12.5% and 10.8%.

Study 3 — action: antagonist
Target: Beta-1 adrenergic receptor (ADRB1, Homo sapiens, UniProt P08588)
Chain of UniProt P08588 (whole entry, looked up): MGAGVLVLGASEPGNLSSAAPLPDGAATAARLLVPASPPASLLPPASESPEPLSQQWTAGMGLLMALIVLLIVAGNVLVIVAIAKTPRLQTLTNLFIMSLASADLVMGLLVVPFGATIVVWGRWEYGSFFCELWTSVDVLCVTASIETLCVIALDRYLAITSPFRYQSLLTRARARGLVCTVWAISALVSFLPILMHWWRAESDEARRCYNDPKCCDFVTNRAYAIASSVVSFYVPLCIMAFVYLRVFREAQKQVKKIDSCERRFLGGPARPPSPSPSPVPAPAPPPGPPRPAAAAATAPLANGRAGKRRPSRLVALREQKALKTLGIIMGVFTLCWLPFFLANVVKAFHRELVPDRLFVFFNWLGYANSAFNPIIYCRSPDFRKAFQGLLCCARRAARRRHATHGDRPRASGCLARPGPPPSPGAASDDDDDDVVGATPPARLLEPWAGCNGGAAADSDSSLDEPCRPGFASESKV
`O=C1NCC2(CCCN(Cc3cc(O)c4cccc(F)c4n3)C2)O1` (stereo not shown) has an IC50 of no less than 100 µM.
For `CN(C)C(=O)Oc1cc(OC(=O)N(C)C)cc(C(O)CNC(C)(C)C)c1` (stereo not shown), the IC50 was no less than 100 µM.
`Clc1cccc(N2CCNCC2)c1Cl` gave an IC50 of no less than 100 µM.
`Oc1cc2ccccc2c2ccccc12` has an IC50 of no less than 100 µM.

Study 4 — organism: Sarcocystis neurona; observed: parasite growth; tested at: 10 µM; time: 96 h; notes: first screen
With `CN1C(=O)COc2c(C(=O)NC3CN4CCC3CC4)cc(Cl)cc21` (stereo not shown) the inhibition was -5.3%.
The inhibition of `FC(F)(F)c1cccc(N2CCNCC2)c1` is reported as 14.3%.
With `C[C@]12CC[C@H](O)CC1=CC[C@@H]1[C@@H]2CC[C@@]2(C)[C@H]1CC[C@]2(C)O` the inhibition was -1.7%.
`NC1=NC(=O)C(c2ccccc2)O1` (stereo not shown) has an inhibition of -1.2%.
`CN1CCN(C(=O)O[C@H]2c3nccnc3C(=O)N2c2ccc(Cl)cn2)CC1` gave an inhibition of -13.2%.
The inhibition of `c1cncc([C@@H]2CCCN2)c1` is reported as 29.3%.

A few entries again (study 4):
`NC1=NC(=O)C(c2ccccc2)O1` (stereo not shown) has an inhibition of -1.2%.
`CN1CCN(C(=O)O[C@H]2c3nccnc3C(=O)N2c2ccc(Cl)cn2)CC1` gave an inhibition of -13.2%.
The inhibition of `c1cncc([C@@H]2CCCN2)c1` is reported as 29.3%.
